Results from different studies.
Each numbered part is a random draw from the data of one study; scales do not carry over between parts. Positions count from the first letter of the parent shown.

Series 1 — target: CCND2, cyclin fold, Cln2 fusion (human); method: yeast growth competition, sequencing; matrix: yeast; notes: weak parent motif; relative to: not given; reading: higher = stronger binding
Starting sequence: CCP110 docking peptide (human); EKVKRRLDLDIDG
For `EKVARRLDLDIDG [K4A]`, “normalised enrichment score” read 0.188.
`EKVKRRLDLDIDA [G13A]`: “normalised enrichment score” 0.286.
For `EKVKKRLDLDIDG [R5K]`, “normalised enrichment score” read -0.152.
Under “normalised enrichment score”, `EKVKRRADLDIDG [L7A]` is recorded as -0.126.
`EKVKRRLDLDADG [I11A]` — result for “normalised enrichment score”: 0.174.
`AKVKRRLDLDIDG [E1A]` — result for “normalised enrichment score”: 0.538.
`EKVKRRLDLDIAG [D12A]` — result for “normalised enrichment score”: 0.253.

Series 2 — method: protein-binding microarray; form: double-stranded DNA, one strand shown; matrix: in vitro; concentration: 2200 nM top; notes: 60-bp whole probe; added: salmon DNA 0.4 mg/ml; relative to: random background probes; reading: higher = stronger binding; constant ends, left off below: GCCTAGCAC … GTCTTGATTCGCTTGACGCTGCTG
Target: Interferon regulatory factor 7, full length, phosphomimetic (IRF7, Homo sapiens, UniProt Q92985, residues 1-503, S471D/S472D/S475D/S476D/S477D/S483D/S484D/S487D)
Chain of UniProt Q92985 (whole entry, unmodified, looked up): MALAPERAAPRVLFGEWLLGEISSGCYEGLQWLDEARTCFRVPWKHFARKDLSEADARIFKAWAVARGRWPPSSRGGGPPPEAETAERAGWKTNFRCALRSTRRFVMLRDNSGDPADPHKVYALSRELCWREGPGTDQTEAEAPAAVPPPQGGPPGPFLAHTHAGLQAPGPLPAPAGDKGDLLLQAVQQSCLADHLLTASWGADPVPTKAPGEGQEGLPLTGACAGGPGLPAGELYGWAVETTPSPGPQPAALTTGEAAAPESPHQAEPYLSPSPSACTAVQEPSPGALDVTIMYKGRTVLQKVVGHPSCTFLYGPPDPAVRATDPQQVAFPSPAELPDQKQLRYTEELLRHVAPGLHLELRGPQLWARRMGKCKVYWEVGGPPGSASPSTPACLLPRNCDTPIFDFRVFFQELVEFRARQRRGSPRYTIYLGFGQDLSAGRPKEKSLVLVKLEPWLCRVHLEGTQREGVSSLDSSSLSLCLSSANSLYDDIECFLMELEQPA
Under “fitted relative affinity”, `GACGGTTTCGGCTTTCGGGACGTGCTA` is recorded as 6.88 z-score.
Under “fitted relative affinity”, `TTAGGACTGGACTATTGGTTAGTGCTA` is recorded as -0.487 z-score.
For `TTAGATATCGGGACTGGATAAGTGCTA`, “fitted relative affinity” read -0.393 z-score.
`TCACACTCCAGTCTGGGACTGTGCTAG`: “fitted relative affinity” 0.781 z-score.
For `GACGGTTTCGGTCTTGGGACGTGCTAG`, “fitted relative affinity” read 6.79 z-score.
`TCATTTATGTACTCTCTAACTGTGCTA`: “fitted relative affinity” 1.38 z-score.
Under “fitted relative affinity”, `TTAGATGTCAGTTTCGATTAGTGCTAG` is recorded as 5.82 z-score.
`TTATGTATCGGGACTGGGTTAGTGCTA` — result for “fitted relative affinity”: 0.209 z-score.
`GACGGTATCCTTCACCTGACGTGCTAG` — result for “fitted relative affinity”: 0.951 z-score.
Under “fitted relative affinity”, `GACGGTTCCCTTCTCCTGACGTGCTAG` is recorded as 1.56 z-score.
`GACGGACTGGTACTGCTGACGTGCTAG` — result for “fitted relative affinity”: -0.427 z-score.
Under “fitted relative affinity”, `TCATTTATGGTATTTTTACTGTGCTAG` is recorded as 1.06 z-score.
`CAGTTTATTTATTTTTACATGTGCTAG` — result for “fitted relative affinity”: 1.42 z-score.
For `GAGTGGTTCTGCTTCTTAGCGTGCTAG`, “fitted relative affinity” read 0.728 z-score.
`GACGGTCTCGGTATCGGGATGTGCTAG` — result for “fitted relative affinity”: 0.141 z-score.
`TTAGGACTGGGGTTACGGTTAGTGCTA` — result for “fitted relative affinity”: -0.262 z-score.
Under “fitted relative affinity”, `GCTCATTTTTTTTGCAAGCTGTGCTAG` is recorded as 0.81 z-score.
For `GACGATATCAATCTCGAGACGTGCTAG`, “fitted relative affinity” read 0.329 z-score.
`TTAGGCTTCGGGTATCGGTTAGTGCTA` — result for “fitted relative affinity”: 0.285 z-score.

Series 3 — method: RNA Bind-n-Seq; form: RNA; matrix: in vitro; concentration: not given; relative to: input RNA pool; reading: higher = stronger binding
Target: RING finger protein unkempt homolog, zinc fingers 1-6, GST-SBP tag (UNK, Homo sapiens, UniProt Q9C0B0, residues 30-357)
Chain of UniProt Q9C0B0 (30-357, looked up): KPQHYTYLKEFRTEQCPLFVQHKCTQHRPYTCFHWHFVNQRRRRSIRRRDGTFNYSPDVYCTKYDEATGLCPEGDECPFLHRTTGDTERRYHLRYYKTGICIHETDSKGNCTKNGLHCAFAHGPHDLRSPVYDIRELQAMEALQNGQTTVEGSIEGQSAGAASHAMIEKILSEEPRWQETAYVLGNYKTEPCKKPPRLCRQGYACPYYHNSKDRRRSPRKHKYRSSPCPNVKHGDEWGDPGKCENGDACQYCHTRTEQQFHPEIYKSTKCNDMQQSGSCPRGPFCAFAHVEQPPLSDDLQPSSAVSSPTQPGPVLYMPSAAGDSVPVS
Notes: RNA with constant flanks, human-mouse chimeric sites, ends assumed
Constant ends, left off below: GGGAGUUCUACAGUCCGACGAUC … CAACAGAGGAUUGAGCAUCA
`UUGUCGAAGACUCAACGAAAGACUCCAACGGUUAUUCAUAAACAUUAUCAAAUUCAUCGGAUUCGACAUUUUUAUAUGAGAAAAGUCAAAUUUACUCAACAGAAUUACCAUGAUAGACUG` gave a bound/input enrichment of 0.463 ratio.
`UUUCUACUGCAGCAGACGAUGCUAAGAAUUAAGGAUCCUAAGAAGUCCCUGGAUUUUUAUACGAGGGUUCUUGGACUGACGCUAAUCCAGAAGCUUGACUUCCCUGCUAUGAAGUUCUCG` has a bound/input enrichment of 0.141 ratio.
The bound/input enrichment of `GCAGGAUCUUCUAAGUACCAGUGGGACAUUAUGAAAUCCCUUGGCCUCUCUGAUGACGACAUAGUGAAGUUUUCUGAAGCAGAGCACUGGCUUGAUUAUUUCCCACCACUGGCUAUUCAG` is reported as 0.142 ratio.
With `CUUAAUGAUAUUUUGAGUGAAUAAAUGAAGCUAAAAUUUUGCUUUCUGGUACAACACGCAUUAAUAAAAGGUUAAGUUUUGUUUUCCACUGAAGUACUAUUUAACAUCUCAGAAAAAAAC` the bound/input enrichment was 0.142 ratio.
`GGAAGUACAAUGAUGGAGAUUGAUGGUGAUAAAGGCAAGCAGGGCGGGCCCACCUACUACAUAGAUACCAAUGCCCUCCGCGUGCCCAGGGAGAACAUGGAGGCCAUCUCACCACUCAAG` gave a bound/input enrichment of 0.293 ratio.
`CAGACUGUGUCAUACUUUUUAGACAUUCACAUCAGACUUACAGAGCACCUGGCCACAUUCUAGUUUUGUGUUAUUUCUCAGCUAUGGAUAUGAUCAAAUGAGAACACUGCUUAACUAAUG` gave a bound/input enrichment of 0.64 ratio.
For `GGCCUGGGACCGUCCUGGCUAGUGCAAAAUAGCGGCAGUGGAGGCUCGAGAGGAAAGUUUGUUAGUGGAGGCAGUGGUAGAGGCCGUCAUGUACGGUCUUUACACGAAUAGAUGUGUUCU`, the bound/input enrichment was 0.974 ratio.
With `AGAUUCCCCCUCCUGAGACCUCCUCCGAAGUUGGAGUCUCUUACAGAUGGUUCAUCUCCUGUUAGCGUUUUAGUUUGGACCACCCAGCCUUGGACAAUUCCCGCCAACCAGGCAAUUUGC` the bound/input enrichment was 3.38 ratio.

Series 4 — method: DHFR PCA, deep sequencing; matrix: yeast; added: (+)-ABA 200 µM; relative to: wild-type fitted maximum; reading: higher = stronger binding
Target: ABI1, truncated, D143A, DHFR fusion (Arabidopsis thaliana)
Notes: methotrexate growth selection, single substitutions
Starting sequence: PYL1, truncated, DHFR fusion (Arabidopsis thaliana); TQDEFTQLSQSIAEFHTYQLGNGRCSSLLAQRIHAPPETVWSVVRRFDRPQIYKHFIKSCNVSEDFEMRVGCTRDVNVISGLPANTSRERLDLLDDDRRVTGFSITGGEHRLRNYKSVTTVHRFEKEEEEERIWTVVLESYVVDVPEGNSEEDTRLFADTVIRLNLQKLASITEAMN; partner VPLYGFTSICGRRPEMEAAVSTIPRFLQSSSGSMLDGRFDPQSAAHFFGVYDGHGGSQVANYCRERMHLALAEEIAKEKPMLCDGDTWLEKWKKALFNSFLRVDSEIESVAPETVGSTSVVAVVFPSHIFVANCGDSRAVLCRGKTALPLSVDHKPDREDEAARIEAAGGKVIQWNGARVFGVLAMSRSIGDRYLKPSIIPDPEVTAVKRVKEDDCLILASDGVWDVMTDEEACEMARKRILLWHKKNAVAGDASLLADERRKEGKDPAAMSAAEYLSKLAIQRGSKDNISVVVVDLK
`K116H`: “relative binding score” 91.5%.
`I57L`: “relative binding score” 95.3%.
`E109G`: “relative binding score” 88.4%.
For `L20A`, “relative binding score” read 108%.
Under “relative binding score”, `S150Y` is recorded as 58.7%.
`D95R` — result for “relative binding score”: 59.1%.
For `A175C`, “relative binding score” read 94.9%.
For `F47G`, “relative binding score” read 3.23%.
`V121Y` — result for “relative binding score”: -5.53%.
Under “relative binding score”, `D97Y` is recorded as 84.4%.
`E4M`: “relative binding score” 93.8%.
For `V136I`, “relative binding score” read 110%.
Under “relative binding score”, `T160C` is recorded as 86.5%.
`R155I`: “relative binding score” 94.8%.
For `S150H`, “relative binding score” read 71.5%.
`F157Y`: “relative binding score” 85.8%.
`K168G` — result for “relative binding score”: 91.4%.
Under “relative binding score”, `L138F` is recorded as 101%.
Under “relative binding score”, `T17F` is recorded as 72.3%.

Series 5 — method: protein binding microarray; form: double-stranded DNA, one strand shown; matrix: in vitro; concentration: not given; relative to: not given; reading: higher = stronger binding
Target: Histone acetyltransferase KAT6A, winged helix 1, GST fusion (KAT6A, Homo sapiens, UniProt Q92794, residues 1-85)
Notes: 8-mer, flanks averaged, mean of 2 arrays, mostly near background
Residues (chain): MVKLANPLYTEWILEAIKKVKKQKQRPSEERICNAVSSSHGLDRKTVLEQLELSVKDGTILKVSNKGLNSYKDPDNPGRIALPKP
The E-score of `TAGGTTGA` is reported as -0.165.
`AAGCAGAC` gave an E-score of -0.192.
`CTATACTC` has an E-score of 0.0587.
`CCTTTTCC` gave an E-score of -0.0857.
With `CTCCGAAG` the E-score was -0.0349.
`ACCGGCCC` gave an E-score of 0.308.
With `AGGCGACT` the E-score was -0.018.
`CATTCTTA` gave an E-score of -0.186.
For `ATCCCCTG`, the E-score was -0.198.
With `GCAAATAC` the E-score was -0.13.
`CTTTTTCC` has an E-score of 0.0425.
For `ACACTGAT`, the E-score was -0.221.
`GAGTGTGC` gave an E-score of -0.131.
For `ACCGAGAG`, the E-score was -0.0432.
With `AAGTCCGA` the E-score was 0.0116.
For `ACTACCCC`, the E-score was -0.0984.

Mixed results
With `PhoQ, residues 284 288 289 292 302 303 TNSAEL` the fold induction was 2.63 (PhoP, residues 12 14 15 18 19 QWHVF (Escherichia coli, UniProt P23836); Sort-seq, measured: YFP reporter; E. coli; PhoQ-PhoP variant library, added: 10 µM Mg2+; relative to: high Mg2+ state, higher = stronger signaling).

Excerpt of the above (series 2):
`TTATGTATCGGGACTGGGTTAGTGCTA` — result for “fitted relative affinity”: 0.209 z-score.
Under “fitted relative affinity”, `TCATTTATGGTATTTTTACTGTGCTAG` is recorded as 1.06 z-score.
`GACGGACTGGTACTGCTGACGTGCTAG` — result for “fitted relative affinity”: -0.427 z-score.
`TCACACTCCAGTCTGGGACTGTGCTAG`: “fitted relative affinity” 0.781 z-score.
For `GACGATATCAATCTCGAGACGTGCTAG`, “fitted relative affinity” read 0.329 z-score.
